Results from different studies.
Parts stem from different laboratories: compare values within a part only.

Sample 1 — method: RNA Bind-n-Seq; molecule type: RNA; medium: in vitro; concentration: 365 nM; relative to: no-protein control; direction: higher = stronger binding; endpoint: RBNS enrichment (R)
Target: RNA binding protein fox-1 homolog 2, RRM domain, GST-SBP tag (RBFOX2, Homo sapiens, UniProt O43251-10, residues 100-194)
Setting: natural RNA segment, single round, ends assumed
Shared flanks, not repeated: GGGAGUUCUACAGUCCGACGAUC … UGGAAUUCUCGGGUGCCAA
Residues (chain): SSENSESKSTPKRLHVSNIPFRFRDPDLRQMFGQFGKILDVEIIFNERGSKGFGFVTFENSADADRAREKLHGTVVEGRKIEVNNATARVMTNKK
Sequence = UAGGCCGGCCUGGCCGCACCCCUGCGCCCUCAAGCCAUGCUGCUCCUUGUAAAUACCCGCUGCUGCGGUGGCCCUGAGCGAGGAACAAGCCAUUCGGACCCGACCGAUGU; result = 0.273
Sequence = AUACACUGAGGUGUAUUUUACAAUUGCUCCUUAAGAUUCUCAGUGGAGAUUAGGAGCAACACUGCACUUCUGAUAGAAAAAUGGCCUUGGAUCACUAAACUAGGUAGAGA; result = 0.587
Sequence = CCAGCGUGUGUACACAUAAACCUUAACAAGACUACAAGUAUAUUCCAGAAGGAAAUCAUUUUAGUUAUGAACUAAAUAAUAAAAAUUAGAACUUCAAAUGCGAUGGUCUU; result = 0.346
Sequence = GAAUGAUGGUGUUUAUUGCAAAUGCACAAUCUUUUUCCCAUUGAAAUGUCAUCACACUGGAAAUUGUACUAUAUGUAAAAAAAAAAAAAAGUAUAGUUUUAUAUUUGAAA; result = 0.908
Sequence = ACUACAGCAGGUGGAGAUGGUGCAGGGCGGGGUGAUGAGGUUAUAAAACUAUGGAACCUCCUCUGGCCCCACCCCCUUAUCUUUCCCUACUGUUCAUUGUAAAGGGUCAG; result = 0.226
Sequence = UUUAUCUGGACAGCUCUCCUACCCUGUAUCUUCUCCUCAGAUCUGAGGAUAGCAGGCUGGACUAUUGGUGGGCACCUUUCAAGCCCAGGGCUACUGUUUGUCCUGUGGCA; result = 0.561
Sequence = AAAUCGUGUUCCAAGAGCACUUUGUAACUCACUGAGGGGGAGGGGAAGCACCUUUUGGGUUUGCGAUACCAAUCAACAUAAGGUGUUGUUGACUCGGGUACAAUAAAACU; result = 0.583
Sequence = AACGAGGCCUCUGCAAGCCACUUUUCCAUGCCAAGCAUCCACCCGGCCCACAGGCAUGUUUCUGCCGCCACUCCGCAAGAUGGACAGGGAGCCAGCAGGCAGGCGGGAAG; result = 2.96

Sample 2 — method: protein binding microarray; molecule type: double-stranded DNA, one strand shown; medium: in vitro; concentration: not given; relative to: not given; direction: higher = stronger binding; endpoint: E-score
Target: Histone acetyltransferase KAT6A, winged helix 2, GST fusion (KAT6A, Homo sapiens, UniProt Q92794, residues 85-181)
Setting: 8-mer, flanks averaged, mean of 2 arrays, mostly near background
Residues (chain): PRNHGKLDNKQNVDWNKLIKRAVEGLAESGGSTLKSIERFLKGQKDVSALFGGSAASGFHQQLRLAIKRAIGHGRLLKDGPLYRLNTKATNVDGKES
Sequence = CAGAAGCA; result = 0.0442
Sequence = TTAGCAAA; result = 0.0643
Sequence = GGAAATCA; result = 0.0987
Sequence = AGTGATGA; result = -0.0158
Sequence = GCCTGATA; result = 0.0106
Sequence = ACGGGAGC; result = -0.0229
Sequence = GCAGCTTA; result = 0.151
Sequence = GCGCGGGA; result = 0.186
Sequence = ACAGTGCG; result = -0.111
Sequence = ATCAGATA; result = -0.0818
Sequence = ATGGGTCA; result = -0.0818
Sequence = CGCGGCAC; result = 0.119
Sequence = CGGTACCA; result = -0.0402
Sequence = ATGCGGCG; result = 0.215
Sequence = AAAATCTG; result = 0.133
Sequence = CACACTTC; result = -0.0247
Sequence = ACCTTGGG; result = 0.0767
Sequence = GACCGGCC; result = 0.136
Sequence = CATGGTAA; result = -0.154
Sequence = ACAACGGT; result = -0.145
Sequence = ATCAGTTC; result = -0.0958
Sequence = CTCTCACC; result = -0.0102
Sequence = AGGGTTCA; result = -0.06
Sequence = ACCCCTGG; result = -0.023
Sequence = CGGTTGCC; result = 0.0977

Sample 3 — method: RNAcompete; molecule type: RNA; medium: in vitro; concentration: 20 nM; setting: 7-mer, probes averaged, single round; relative to: mean of 7-mers; direction: higher = stronger binding; endpoint: 7-mer Z-score
Target: PABPC1L2, full length, GST fusion (mouse, UniProt A0ABA7IW68)
Target sequence (chain): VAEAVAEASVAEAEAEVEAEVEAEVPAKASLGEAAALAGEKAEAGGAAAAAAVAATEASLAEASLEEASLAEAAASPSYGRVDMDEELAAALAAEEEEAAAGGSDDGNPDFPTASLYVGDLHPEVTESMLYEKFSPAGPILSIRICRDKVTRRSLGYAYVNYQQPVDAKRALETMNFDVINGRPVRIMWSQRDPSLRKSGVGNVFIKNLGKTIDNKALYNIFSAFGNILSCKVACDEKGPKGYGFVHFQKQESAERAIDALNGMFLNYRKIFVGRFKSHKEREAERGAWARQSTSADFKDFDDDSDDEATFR
Sequence = GAGGUAA; result = 0.287
Sequence = CAUCGGU; result = -0.219
Sequence = AGAUAGG; result = -0.0935
Sequence = AUCAUAA; result = 0.454
Sequence = ACUCUAA; result = 0.095
Sequence = GCGUGUC; result = -0.329
Sequence = AGUGAUA; result = -0.0591
Sequence = GGAGUGA; result = 0.0297
Sequence = CGGCGUG; result = -0.124
Sequence = GGGCCUC; result = -0.159
Sequence = GGCUACA; result = 0.0605
Sequence = CGUCUCC; result = -0.432
Sequence = CUUUGUA; result = -0.349
Sequence = AGUACCA; result = -0.00833
Sequence = AGAACGG; result = 0.075
Sequence = UCGUUGC; result = -0.358
Sequence = UCAGUGG; result = -0.0844
Sequence = UUUGCGU; result = -0.496
Sequence = CCAUAGU; result = -0.382
Sequence = CCUCGGU; result = -0.336
Sequence = ACGUGAG; result = -0.228
Sequence = GGGUUAU; result = 0.104
Sequence = AUUCCUC; result = -0.311
Sequence = UCCCAUU; result = -0.336
Sequence = CAGGGCU; result = 0.0986

Sample 4 — method: protein-binding microarray; molecule type: double-stranded DNA, one strand shown; medium: in vitro; concentration: 2540 nM top; setting: 60-bp whole probe; with: salmon DNA 0.4 mg/ml; relative to: random background probes; direction: higher = stronger binding; endpoint: fitted relative affinity; shared flanks, not repeated: GCCTAGCAC … GTCTTGATTCGCTTGACGCTGCTG
Target: Interferon regulatory factor 3, full length, phosphomimetic (IRF3, Homo sapiens, UniProt Q14653, residues 1-427, S386D/S396D/S398D/S402D/T404D/S405D)
Residues (chain): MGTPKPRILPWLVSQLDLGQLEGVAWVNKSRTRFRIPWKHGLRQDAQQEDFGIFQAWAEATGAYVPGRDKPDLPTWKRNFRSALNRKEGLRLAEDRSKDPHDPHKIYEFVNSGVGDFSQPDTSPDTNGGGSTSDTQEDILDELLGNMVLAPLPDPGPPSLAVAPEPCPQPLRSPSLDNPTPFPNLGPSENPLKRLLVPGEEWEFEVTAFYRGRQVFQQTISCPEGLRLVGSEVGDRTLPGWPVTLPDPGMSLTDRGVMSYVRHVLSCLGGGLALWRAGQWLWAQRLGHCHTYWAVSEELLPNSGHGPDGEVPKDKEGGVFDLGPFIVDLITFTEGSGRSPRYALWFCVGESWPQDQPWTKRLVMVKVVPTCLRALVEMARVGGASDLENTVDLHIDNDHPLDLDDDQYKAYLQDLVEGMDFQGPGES
Sequence = AACGGTATCGGTCTCGGGACGTGCTAG; result = 4.7 z-score
Sequence = GACGATATCAGTCTCCAGACGTGCTAG; result = 1.49 z-score
Sequence = TCATACATTTATATCTTACTGTGCTAG; result = 0.626 z-score
Sequence = GGACCGACCCCTCCATCCCTGTGCTAG; result = -0.25 z-score
Sequence = TCAGGAGTCATTCTCAAACTGTGCTAG; result = 0.92 z-score
Sequence = GACGGTGTCGGTTCCGGGACGTGCTAG; result = 3.93 z-score
Sequence = TTAGGTATCGACGATCGGTTAGTGCTA; result = -0.182 z-score
Sequence = GACGGTATCTGGTTTCGGGACGTGCTA; result = 2.53 z-score
Sequence = TTAGAACTGGGGACTGCATTAGTGCTA; result = -1.08 z-score
Sequence = GACGGTATCAGTATCGAGACGTGCTAG; result = 3.38 z-score
Sequence = GACGATATCAGTTTAGAGACGTGCTAG; result = 1.45 z-score
Sequence = GACGATATCAGACTGGAGGCGTGCTAG; result = 0.146 z-score
Sequence = GACGGTCTCGGACTGGGGAGGTGCTAG; result = -0.00916 z-score
Sequence = TTAGATTTCACTTTCGATTAGTGCTAG; result = 5.49 z-score
Sequence = TTAGGAGTGCTTTTCCTTTAGTGCTAG; result = 0.972 z-score
Sequence = TTAGGTCTCGGTATCGCTTAGTGCTAG; result = 1.43 z-score
Sequence = CCTGGTTTTACTTTCTATCTGTGCTAG; result = 3.57 z-score
Sequence = TTAGATATCAGTATCGATAAGTGCTAG; result = 1.73 z-score
Sequence = CCCATTCCAGGGTTTTATGGAGTGCTA; result = 1.22 z-score

Excerpt of the above (sample 3):
Sequence = GCGUGUC; result = -0.329
Sequence = AGUGAUA; result = -0.0591
Sequence = GGAGUGA; result = 0.0297
Sequence = CGGCGUG; result = -0.124
Sequence = GGGCCUC; result = -0.159
Sequence = GGCUACA; result = 0.0605
Sequence = CGUCUCC; result = -0.432
Sequence = CUUUGUA; result = -0.349
Sequence = AGUACCA; result = -0.00833
Sequence = AGAACGG; result = 0.075
Sequence = UCGUUGC; result = -0.358
